Experimental data of several laboratories.
Each line is one published result; not all experiments were run side by side.

With `OC/C(=C/Cc1ccc(O)cc1)c1ccc(O)cc1` the IC50 was 4.93 µg/mL (STAT3; reporter gene, inhibitor; NCI-H460).
For `COc1cccc(CNC(=O)c2cn(Cc3ccc(Cn4ccccc4=O)cc3)nc2C2CC2)c1F`, the IC50 was greater than 40 µM (trypsin).
The IC50 of `Oc1ccc(C/C=C(/COCc2ccccc2)c2ccc(OCc3ccccc3)cc2)cc1` is reported as 2.64 µg/mL (STAT3; reporter gene, inhibitor; NCI-H460).
`COc1ccc(CNc2c(CO)cnc3c(C4CC4)cc(C#N)cc23)cn1` gave an IC50 of greater than 10 µM (PDE3; inhibitor).
With `COc1ccc(C/C=C/c2cc(OC)cc(OC)c2)cc1` the IC50 was 3.79 µg/mL (STAT3; reporter gene, inhibitor; NCI-H460).
The IC50 of `COc1ccnc(CNC(=O)c2cn(Cc3ccc(Cn4ccccc4=O)cc3)nc2C2CC2)c1F` is reported as greater than 40 µM (trypsin).
With `COc1ccc(C/C=C/c2ccc(O)cc2)cc1` the IC50 was 2.23 µg/mL (STAT3; reporter gene, inhibitor; NCI-H460).
For `O=C(Nc1ccncc1)c1cc([N+](=O)[O-])ccc1Cl`, the EC50 was 0.746 µM (Toxoplasma gondii; parasite growth, luciferase reporter; HFF, tachyzoite; 72 h).
The IC50 of `CCN(CC)CCCC(C)Nc1ccnc2cc(Cl)ccc12` (stereo not shown) is reported as 15 µM (β-hematin formation; detergent-based).
`Brc1ccc2nc(SCc3ccccc3)c(CNCCC3CCN(C4CCCC4)CC3)cc2c1` gave an IC50 of 3.2 µg/mL (Pseudomonas aeruginosa electron transport chain; ACMA quenching; inverted membrane vesicles; added: NADH).
For `CC(=O)C1=C(C)N(c2cccc(C(F)(F)F)c2)C(=O)N[C@@H]1c1ccc(C#N)nc1`, the IC50 was greater than 30 µM (trypsin).
For `CCN(CC)Cc1cc(Nc2ccnc3cc(Cl)ccc23)ccc1O`, the IC50 was 5 µM (β-hematin formation; detergent-based).
The IC50 of `COCc1nn(Cc2ccc(Cn3ccccc3=O)cc2)cc1C(=O)NCc1c(Cl)ccc(OC)c1F` is reported as greater than 40 µM (trypsin).
`C[n+]1cc2c3c(ccc2c2ccc4cc5c(cc4c21)OCO5)OCO3` gave an EC50 of 0.1 µM (Toxoplasma gondii; tachyzoite growth, luciferase; ME49-Fluc, type II).
`COc1ccnc(CNC(=O)c2cnn(Cc3ccc(Cn4ccccc4=O)cc3)c2)c1F` has an IC50 of greater than 40 µM (trypsin).
`CCN1CCC(CCNCc2cc3cc(Br)ccc3nc2SCc2ccccc2)CC1` has an IC50 of 3.2 µg/mL (Pseudomonas aeruginosa electron transport chain; ACMA quenching; inverted membrane vesicles; added: NADH).

A few entries again:
`C[n+]1cc2c3c(ccc2c2ccc4cc5c(cc4c21)OCO5)OCO3` gave an EC50 of 0.1 µM (Toxoplasma gondii; tachyzoite growth, luciferase; ME49-Fluc, type II).
`CCN1CCC(CCNCc2cc3cc(Br)ccc3nc2SCc2ccccc2)CC1` has an IC50 of 3.2 µg/mL (Pseudomonas aeruginosa electron transport chain; ACMA quenching; inverted membrane vesicles; added: NADH).
For `CCN(CC)Cc1cc(Nc2ccnc3cc(Cl)ccc23)ccc1O`, the IC50 was 5 µM (β-hematin formation; detergent-based).
